Measured values gathered from unrelated publications.
A part holds a random share of what one study measured.

Block 1
Target: Sal-like protein 4, full length isoform A (SALL4, Homo sapiens, UniProt Q9UJQ4, residues 1-1053)
Sequence of UniProt Q9UJQ4 (whole entry, looked up): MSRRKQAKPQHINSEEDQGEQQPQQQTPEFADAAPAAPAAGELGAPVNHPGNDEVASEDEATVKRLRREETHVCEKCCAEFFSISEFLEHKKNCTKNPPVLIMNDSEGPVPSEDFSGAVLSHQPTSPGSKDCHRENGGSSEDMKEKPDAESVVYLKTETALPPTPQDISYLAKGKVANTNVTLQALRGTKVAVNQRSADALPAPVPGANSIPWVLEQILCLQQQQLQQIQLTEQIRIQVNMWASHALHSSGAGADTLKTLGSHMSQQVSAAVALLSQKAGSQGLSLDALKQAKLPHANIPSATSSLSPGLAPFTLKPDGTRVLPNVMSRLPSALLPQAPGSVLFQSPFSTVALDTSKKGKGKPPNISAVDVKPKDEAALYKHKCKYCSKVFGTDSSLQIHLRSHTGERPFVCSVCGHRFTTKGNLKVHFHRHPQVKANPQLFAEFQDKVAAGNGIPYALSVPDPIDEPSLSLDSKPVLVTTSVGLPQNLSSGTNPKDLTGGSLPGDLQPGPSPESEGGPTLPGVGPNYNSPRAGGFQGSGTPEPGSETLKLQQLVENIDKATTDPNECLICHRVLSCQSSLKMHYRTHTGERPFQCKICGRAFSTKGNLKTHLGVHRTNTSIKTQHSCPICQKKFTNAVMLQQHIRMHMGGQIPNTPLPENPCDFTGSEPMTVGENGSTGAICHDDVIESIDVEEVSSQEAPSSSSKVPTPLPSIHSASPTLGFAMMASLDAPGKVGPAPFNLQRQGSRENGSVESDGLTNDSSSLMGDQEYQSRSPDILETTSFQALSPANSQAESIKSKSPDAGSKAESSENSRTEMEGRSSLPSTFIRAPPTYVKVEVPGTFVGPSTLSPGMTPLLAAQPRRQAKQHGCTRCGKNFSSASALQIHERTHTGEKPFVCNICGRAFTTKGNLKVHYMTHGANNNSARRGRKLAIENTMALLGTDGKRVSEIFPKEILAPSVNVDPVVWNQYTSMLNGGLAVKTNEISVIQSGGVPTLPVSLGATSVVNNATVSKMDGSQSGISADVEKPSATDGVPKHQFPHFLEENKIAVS
Method: universal PBM
Form: double-stranded DNA, one strand shown
Matrix: in vitro
Tested at: 600 nM
Notes: 8-mer, flanks averaged, mean of replicates
Reading: higher = stronger binding
Strand | E-score
ATCGGGTC | -0.163
AGTCATAA | 0.371
ACGCAGGA | -0.14
ACGAGAAT | 0.151
TGTCTAAA | 0.247
ACAGTTCG | -0.0671
ATTCACCC | -0.0361

Block 2
Target: Prothrombin, mature alpha-thrombin (F2, Homo sapiens, UniProt P00734)
Method: aptamer microarray, sandwich
Form: DNA with 2'F-ANA
Matrix: in vitro
Tested at: 200 nM
Notes: whole 15-mer aptamer, many near background
Together with: Cy3 exosite-II aptamer, 400 nM
Reading: higher = stronger binding
Strand: GGTTGGTGTGGTTGG
Modification | mean fluorescence intensity [a.u.]
2'F-ANA at 1 2 3 4 5 6 7 8 9 10 13 | 54.7
2'F-ANA at 1 2 4 5 6 9 12 14 15 | 45.1
2'F-ANA at 1 2 4 7 12 13 15 | 215
2'F-ANA at 3 5 8 14 | 58.7
2'F-ANA at 2 3 7 9 10 13 | 375

Block 3
Target: Interferon regulatory factor 3, full length, phosphomimetic (IRF3, Homo sapiens, UniProt Q14653, residues 1-427, S386D/S396D/S398D/S402D/T404D/S405D)
Method: protein-binding microarray
Form: double-stranded DNA, one strand shown
Matrix: in vitro
Tested at: 2540 nM top
Notes: 60-bp whole probe
Together with: salmon DNA 0.4 mg/ml
Relative to: random background probes
Reading: higher = stronger binding
All sequences stand within: GCCTAGCAC … GTCTTGATTCGCTTGACGCTGCTG
Construct (chain): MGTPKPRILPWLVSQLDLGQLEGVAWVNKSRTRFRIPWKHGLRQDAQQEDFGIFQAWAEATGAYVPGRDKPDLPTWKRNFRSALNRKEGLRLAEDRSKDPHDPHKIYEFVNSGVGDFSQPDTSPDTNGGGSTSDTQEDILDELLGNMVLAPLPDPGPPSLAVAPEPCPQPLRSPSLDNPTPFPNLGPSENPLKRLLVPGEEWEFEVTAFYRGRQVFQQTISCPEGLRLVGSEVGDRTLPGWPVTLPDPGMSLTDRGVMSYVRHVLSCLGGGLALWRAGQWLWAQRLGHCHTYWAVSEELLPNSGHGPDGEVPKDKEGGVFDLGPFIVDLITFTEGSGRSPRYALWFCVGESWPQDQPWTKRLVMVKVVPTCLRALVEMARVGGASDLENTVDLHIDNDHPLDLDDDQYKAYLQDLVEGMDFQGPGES
Strand | fitted relative affinity
GGACTGTCAGCCACTTTTTGGTGCTAG | -0.421 z-score
TTAGGTATCGGACTGGGTTGGTGCTAG | 1.1 z-score
CTCTCTTTCCAACTCTGTTTGTGCTAG | 3.79 z-score
TTAAAACTGGGGACTGGATTAGTGCTA | -0.789 z-score
TGAGAACTGGGGTTTCGATTAGTGCTA | 1.12 z-score
TTAGGTTTCGACTATCGCTTAGTGCTA | 2.24 z-score

Further values, each from its own experiment
Molecule | target | test | test system | conditions | scale | measurement | value
PhoQ, residues 284 288 289 292 302 303 TNSAEL | PhoP, residues 12 14 15 18 19 SQCLL (Escherichia coli, UniProt P23836) | Sort-seq, refers to: YFP reporter | E. coli | PhoQ-PhoP variant library, together with: 10 µM Mg2+ | relative to: high Mg2+ state, higher = stronger signaling | fold induction | 16.9

For quick reference, copied from above (block 3):
Strand | fitted relative affinity
TGAGAACTGGGGTTTCGATTAGTGCTA | 1.12 z-score
CTCTCTTTCCAACTCTGTTTGTGCTAG | 3.79 z-score
